# Measurements of several laboratories.
# Compare with care: the assays were run in different laboratories.
# Cell line: T47D
SMILES,assay,setting,IC50
CCCCCCCCn1c(-c2cccnc2)nc(-c2ccccc2)c1-c1ccccc1,"cell growth or viability, SRB",24 h,65.8 µM
Cc1ccc(C2=NN(C3=NC(=O)/C(=C/c4ccccc4)S3)C(c3ccc(F)cc3)C2)cc1 (centres unmarked),"cell growth or viability, MTT",,17.1 µM
c1ccc(-c2nc(-c3cccnc3)[nH]c2-c2ccccc2)cc1,"cell growth or viability, SRB",24 h,> 100 µM
Cc1c(C)c(C)c(C[n+]2cn(CC(C)(C)c3ccccc3)c3ccccc32)c(C)c1C,"cell growth or viability, MTT",48 h,34 µM
COc1ccc(/C=C2\SC(N3N=C(c4ccc(OC)cc4)CC3c3ccc(F)cc3)=NC2=O)cc1 (centres unmarked),"cell growth or viability, MTT",,14.4 µM
CCCCCCCCCCCCCCCCn1c(-c2cccnc2)nc(-c2ccc(C)cc2)c1-c1ccc(C)cc1,"cell growth or viability, SRB",24 h,> 100 µM
Cc1cc(C#N)cc(C)c1Oc1cc(Nc2ccc(C#N)cn2)nc2ccncc12,,48 h,> 127 µM
CCCCCCCCCCCCCCn1c(-c2cccnc2)nc(-c2ccc(C)cc2)c1-c1ccc(C)cc1,"cell growth or viability, SRB",24 h,> 100 µM
Cc1cc(C#N)cc(C)c1Oc1cc(Nc2ccc(C#N)cc2)nc2ccncc12,,48 h,> 128 µM
O=C1N=C(N2N=C(c3cccs3)CC2c2ccc(F)cc2)S/C1=C\c1ccc(Cl)cc1 (centres unmarked),"cell growth or viability, MTT",,16.9 µM
Cc1cc(C=O)cc(C)c1Oc1cc(Nc2ccc(C#N)cc2)nc2cnccc12,,48 h,> 127 µM
Cc1ccc(C2=NN(C3=NC(=O)C(=Cc4ccc(O)cc4)S3)C(c3ccc(F)cc3)C2)cc1 (centres unmarked),"cell growth or viability, MTT",,0.75 µM
CCCCCCCCC=CCCCCCCCCn1c(-c2cccnc2)nc(-c2ccc(C)cc2)c1-c1ccc(C)cc1,"cell growth or viability, SRB",24 h,> 100 µM
Cc1ccc(C(C)C)cc1.Oc1ccccc1C=NNC1=Nc2ccccc2-c2[nH]c3ccc(Br)cc3c2C1.[Cl-].[Cl][Os+],"cell growth or viability, MTT",96 h,3.5 µM
CCCCn1cc(C(=O)O)c(=O)c2cc(F)c(Nc3ccc(OC)cc3OC)c(N)c21,"cell growth or viability, SRB",72 h,> 200 µg/mL
CCCCCCCCn1c(-c2cccnc2)nc(-c2ccc(C)cc2)c1-c1ccc(C)cc1,"cell growth or viability, SRB",24 h,48.8 µM
O=C1N=C(N2N=C(c3cccs3)CC2c2ccc(F)cc2)SC1=Cc1ccc(O)cc1 (centres unmarked),"cell growth or viability, MTT",,1.15 µM
Cc1ccc2nc(NC(=O)Cn3cc(COc4ccc(/C=N/Nc5cc([N+](=O)[O-])cc([N+](=O)[O-])c5)cc4)nn3)sc2c1,"cell growth or viability, MTT",48 h,77 µM
COc1ccc(C2=NN(C3=NC(=O)/C(=C/c4ccc(N(C)C)cc4)S3)C(c3ccc(F)cc3)C2)cc1 (centres unmarked),cell growth,,> 100 µM
Cc1cc(C#N)cc(C)c1Oc1cc(Nc2ccc(C#N)cn2)nc2cnccc12,,48 h,> 127 µM

# Excerpt of the above:
SMILES,assay,setting,IC50
Cc1ccc2nc(NC(=O)Cn3cc(COc4ccc(/C=N/Nc5cc([N+](=O)[O-])cc([N+](=O)[O-])c5)cc4)nn3)sc2c1,"cell growth or viability, MTT",48 h,77 µM
